Measured values from different studies.
Each numbered part is a random draw from the data of one study; scales do not carry over between parts. Positions count from the first letter of the parent shown.

Series 1
Target: Eukaryotic initiation factor 4A-I (EIF4A1, Homo sapiens, UniProt P60842, residues 1-406, full length assumed)
Chain of UniProt P60842 (whole entry, looked up): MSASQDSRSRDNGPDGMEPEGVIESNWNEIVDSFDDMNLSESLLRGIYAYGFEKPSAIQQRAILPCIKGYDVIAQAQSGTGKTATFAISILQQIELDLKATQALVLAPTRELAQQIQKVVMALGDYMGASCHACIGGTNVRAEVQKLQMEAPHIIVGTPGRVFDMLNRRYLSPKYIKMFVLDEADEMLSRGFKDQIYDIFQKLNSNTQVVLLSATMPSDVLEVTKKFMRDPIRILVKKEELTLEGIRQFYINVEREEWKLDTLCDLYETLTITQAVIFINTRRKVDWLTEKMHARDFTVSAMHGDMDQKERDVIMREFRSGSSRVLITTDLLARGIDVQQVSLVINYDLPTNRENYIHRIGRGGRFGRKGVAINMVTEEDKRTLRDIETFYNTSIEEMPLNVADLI
Method: RNA Bind-n-Seq
Form: RNA
Sample: in vitro
Concentration: 90 pmol
Notes: 4-mer, random 30-nt RNA, single round
Together with: 3 µM DMDA-PatA, 2 mM ADP, 2 mM phosphate
Baseline: input library
Reading: higher = stronger binding
| Sequence | 4-mer enrichment [fold] |
| --- | --- |
| GGAU | 0.9 |
| UUUC | 0.791 |
| AUUG | 0.998 |
| AUAG | 1.01 |
| AAUU | 1.04 |
| GGCC | 0.59 |
| ACUU | 0.633 |
| UUAC | 0.689 |
| GCGA | 1.76 |
| UAAU | 0.998 |
| GUCC | 0.626 |
| CGGG | 1.19 |
| CAAA | 0.955 |
| CCGC | 0.689 |
| CCAU | 0.627 |
| UUUA | 1.12 |
| UACU | 0.619 |
| UGAU | 1.01 |
| CUCC | 0.595 |
| CACA | 0.725 |
| ACAG | 0.91 |

Series 2
Target: ATF7, bZIP domain (human)
Method: DHFR protein complementation
Sample: yeast
Notes: single substitutions, most at no-binding floor
Baseline: wild-type JUN-FOS pair
Reading: higher = stronger binding
Starting sequence: JUN, bZIP domain (human); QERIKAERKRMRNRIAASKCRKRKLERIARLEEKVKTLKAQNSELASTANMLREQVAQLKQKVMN; partner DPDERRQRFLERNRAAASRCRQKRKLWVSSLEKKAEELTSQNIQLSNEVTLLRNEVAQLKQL
| Variant | binding fitness [natural log] |
| --- | --- |
| A46Y | -1.27 |
| R53Q | -1.31 |
| A46R | -0.785 |
| Q41D | -1.28 |
| I28M | -1.09 |
| K36R | -0.771 |
| K39V | -1.05 |
| V56L | -1.01 |
| A40H | -0.971 |
| T48F | -1.21 |
| V56T | -1.37 |
| A46V | -0.937 |
| L45A | -1.52 |
| V35S | -1.46 |
| V56Y | -1.46 |
| M51F | -1.05 |
| T37P | -1.53 |
| R53F | -1.53 |
| E54P | -1.53 |
| E54A | -0.894 |
| T48R | -1.16 |
| Q41E | -0.779 |
| N42D | -1.28 |
| M51E | -0.853 |
| S47W | -0.989 |

Series 3
Target: Histone acetyltransferase KAT6A, winged helix 1, GST fusion (KAT6A, Homo sapiens, UniProt Q92794, residues 1-85)
Method: protein binding microarray
Form: double-stranded DNA, one strand shown
Sample: in vitro
Concentration: not given
Notes: 8-mer, flanks averaged, mean of 2 arrays, mostly near background
Baseline: not given
Reading: higher = stronger binding
Construct (chain): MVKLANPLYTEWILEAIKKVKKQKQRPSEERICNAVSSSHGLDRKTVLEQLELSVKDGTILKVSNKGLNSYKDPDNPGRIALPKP
| Sequence | E-score |
| --- | --- |
| TAGGAAAA | -0.0635 |
| CAAGCCGA | 0.12 |
| GCTTACAC | 0.00131 |
| CATATACA | -0.0938 |
| AAACCCCG | 0.177 |
| AAGTATTA | -0.215 |
| AGAATCGC | 0.153 |
| ATAGTCGC | 0.121 |
| CTGATACA | -0.0933 |
| AGAGTGCC | -0.176 |
| AACTTTGA | -0.246 |
| GTGTAGAA | -0.132 |
| GACGCCCA | 0.0511 |
| GTGCGAGA | -0.295 |
| GGGGATTA | -0.0443 |
| AGAAGCCA | -0.0899 |
| AGCGGGGC | 0.359 |
| CAGCTTCC | 0.00707 |
| GGGTCGCA | 0.154 |
| CGGGTTAA | 0.301 |
| AGTGCTTC | -0.219 |
| CCGCATTA | 0.274 |
| CTCAGCGC | 0.349 |
| GCCAGTGA | -0.213 |
| ACTGTTGC | -0.0242 |

Series 4
Target: Sal-like protein 4, full length isoform A (SALL4, Homo sapiens, UniProt Q9UJQ4, residues 1-1053)
Chain of UniProt Q9UJQ4 (whole entry, looked up): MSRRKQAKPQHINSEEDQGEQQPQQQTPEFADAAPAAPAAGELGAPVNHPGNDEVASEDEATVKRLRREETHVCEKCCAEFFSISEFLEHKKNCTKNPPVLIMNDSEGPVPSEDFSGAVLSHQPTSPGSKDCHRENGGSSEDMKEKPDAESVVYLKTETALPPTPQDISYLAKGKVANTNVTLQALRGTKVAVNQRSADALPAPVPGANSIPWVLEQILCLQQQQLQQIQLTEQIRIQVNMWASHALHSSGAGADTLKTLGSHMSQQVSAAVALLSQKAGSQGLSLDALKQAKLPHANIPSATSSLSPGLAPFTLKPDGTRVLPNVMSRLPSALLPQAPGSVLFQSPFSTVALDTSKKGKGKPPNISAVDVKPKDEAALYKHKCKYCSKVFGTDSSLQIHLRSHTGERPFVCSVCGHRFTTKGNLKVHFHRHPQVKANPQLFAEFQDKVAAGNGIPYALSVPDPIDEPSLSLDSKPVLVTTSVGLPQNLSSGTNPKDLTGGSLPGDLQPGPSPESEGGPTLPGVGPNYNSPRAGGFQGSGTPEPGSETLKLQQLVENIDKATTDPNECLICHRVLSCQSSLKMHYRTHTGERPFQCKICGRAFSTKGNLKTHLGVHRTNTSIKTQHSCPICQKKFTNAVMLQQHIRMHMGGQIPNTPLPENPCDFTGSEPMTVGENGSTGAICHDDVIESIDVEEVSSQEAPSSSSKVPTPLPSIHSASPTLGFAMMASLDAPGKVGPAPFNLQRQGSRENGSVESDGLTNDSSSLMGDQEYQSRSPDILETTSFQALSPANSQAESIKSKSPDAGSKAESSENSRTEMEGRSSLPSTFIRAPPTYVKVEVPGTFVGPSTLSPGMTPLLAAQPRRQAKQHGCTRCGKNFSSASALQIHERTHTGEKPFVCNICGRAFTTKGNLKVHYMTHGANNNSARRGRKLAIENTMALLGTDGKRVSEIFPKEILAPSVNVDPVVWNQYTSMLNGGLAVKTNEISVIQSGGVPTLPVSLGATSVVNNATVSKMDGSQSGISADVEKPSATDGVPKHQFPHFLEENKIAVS
Method: universal PBM
Form: double-stranded DNA, one strand shown
Sample: in vitro
Concentration: 600 nM
Notes: 8-mer, flanks averaged, mean of replicates
Reading: higher = stronger binding
| Sequence | E-score |
| --- | --- |
| ATGCGGAC | -0.113 |
| AGTCTACA | 0.036 |
| CAGAGAGA | -0.155 |
| AACTTCCT | 0.0551 |
| GAATCACC | -0.0253 |
| GGAGGATA | 0.139 |
| CCCAATGA | -0.0405 |
| ATCCTAGA | 0.0519 |
| GCGCTTCA | -0.146 |
| CGGACGCC | -0.385 |
| GGAGTTGA | 0.0166 |
| ATCGCGTG | -0.0694 |
| AGCTAGCG | -0.281 |
| CAGCGCCG | -0.365 |
| ACCCCCGT | -0.379 |
| ATACACGA | 0.0912 |
| TAATAAAA | 0.432 |

Series 5
Target: CCNE2, cyclin fold, Cln2 fusion (human)
Method: yeast growth competition, sequencing
Sample: yeast
Notes: strong parent motif
Baseline: not given
Reading: higher = stronger binding
Starting sequence: CDKN1A docking peptide (human); SKACRRLFGPVDS; partner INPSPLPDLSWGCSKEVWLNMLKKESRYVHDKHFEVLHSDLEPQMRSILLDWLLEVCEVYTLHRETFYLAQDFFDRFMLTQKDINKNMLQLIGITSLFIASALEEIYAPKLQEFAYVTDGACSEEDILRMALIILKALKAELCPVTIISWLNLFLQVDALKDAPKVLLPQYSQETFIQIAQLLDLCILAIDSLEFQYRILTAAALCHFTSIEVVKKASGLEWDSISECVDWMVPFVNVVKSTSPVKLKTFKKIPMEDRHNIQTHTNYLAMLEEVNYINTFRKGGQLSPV
| Variant | normalised enrichment score |
| --- | --- |
| SKAMRRLFGPVDS [C4M] | 0.762 |
| SKACRRTFGPVDS [L7T] | 0.141 |
| AKACRRLFGPVDS [S1A] | 3.52 |
| SKACRQLFGPVDS [R6Q] | 3.49 |
| SKACRRLFEPVDS [G9E] | 4.77 |
| SKHCRRLFGPVDS [A3H] | 2.71 |
| SKACRRLFAPVDS [G9A] | 4.42 |
| SKACRRLFGWVDS [P10W] | 1.99 |
| SGACRRLFGPVDS [K2G] | 4.8 |
| SKACRRAFGPVDS [L7A] | 0.135 |
| SKACRRLFGPVMS [D12M] | 2.76 |
| SKACRRLNGPVDS [F8N] | 0.237 |
| SKACRRLFGKVDS [P10K] | 2.47 |
| SKYCRRLFGPVDS [A3Y] | 1.6 |
| SKACRVLFGPVDS [R6V] | 3.25 |
| SKACRRLFCPVDS [G9C] | 4.11 |
| SKACKRLFGPVDS [R5K] | 1.37 |
| SKACPRLFGPVDS [R5P] | -0.143 |
| SKFCRRLFGPVDS [A3F] | 1.18 |
| SKACRRLFLPVDS [G9L] | 3.81 |
| SDACRRLFGPVDS [K2D] | 3.09 |
| SKACRRLYGPVDS [F8Y] | 0.411 |
| SKACGRLFGPVDS [R5G] | 0.149 |
| SKACRRLDGPVDS [F8D] | 0.34 |
| SKACRRLFGEVDS [P10E] | 4.26 |

Series 6
Target: ABI1, truncated, D143A, DHFR fusion (Arabidopsis thaliana)
Method: DHFR PCA, deep sequencing
Sample: yeast
Notes: methotrexate growth selection, single substitutions
Together with: (+)-ABA 0 µM
Baseline: wild-type fitted maximum
Reading: higher = stronger binding
Starting sequence: PYL1, truncated, DHFR fusion (Arabidopsis thaliana); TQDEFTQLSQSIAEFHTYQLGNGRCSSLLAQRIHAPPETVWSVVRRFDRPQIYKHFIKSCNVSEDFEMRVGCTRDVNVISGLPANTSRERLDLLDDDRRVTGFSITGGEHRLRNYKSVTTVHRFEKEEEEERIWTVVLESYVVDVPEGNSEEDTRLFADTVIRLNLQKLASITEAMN; partner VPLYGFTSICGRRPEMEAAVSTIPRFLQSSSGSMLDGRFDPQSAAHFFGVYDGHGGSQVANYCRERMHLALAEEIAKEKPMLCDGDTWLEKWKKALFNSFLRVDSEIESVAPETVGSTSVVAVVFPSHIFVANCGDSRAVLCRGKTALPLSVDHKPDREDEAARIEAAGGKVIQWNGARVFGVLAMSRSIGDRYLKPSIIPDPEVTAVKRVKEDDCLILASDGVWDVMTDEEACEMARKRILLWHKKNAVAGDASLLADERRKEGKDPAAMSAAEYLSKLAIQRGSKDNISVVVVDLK
| Variant | relative binding score |
| --- | --- |
| V43I | 44.4% |
| P83A | 21.3% |
| R111W | 6.78% |
| Q7L | 18% |
| F56S | -0.736% |
| R123I | -14.2% |
| L82E | 1.38% |
| P37G | -1.27% |
| K168S | 12.4% |
| V121H | -4.55% |
| K168H | 27.5% |
| N177A | 51.6% |
| M176E | 6.88% |
| L166M | 2.8% |
| V78Q | 8.21% |
| V121I | 9.37% |

Some of these lines once more (series 1):
| Sequence | 4-mer enrichment [fold] |
| --- | --- |
| AUAG | 1.01 |
| AAUU | 1.04 |
| GGCC | 0.59 |
| ACUU | 0.633 |
| UUAC | 0.689 |
| GCGA | 1.76 |
| UAAU | 0.998 |
| GUCC | 0.626 |
| CGGG | 1.19 |
| CAAA | 0.955 |
| CCGC | 0.689 |
| CCAU | 0.627 |
| UUUA | 1.12 |
| UACU | 0.619 |
| UGAU | 1.01 |
